Published values from different studies.
Every numbered part comes from another study and shows a few of its results, in no order.
Sequence of UniProt Q5VT25 (whole entry, looked up): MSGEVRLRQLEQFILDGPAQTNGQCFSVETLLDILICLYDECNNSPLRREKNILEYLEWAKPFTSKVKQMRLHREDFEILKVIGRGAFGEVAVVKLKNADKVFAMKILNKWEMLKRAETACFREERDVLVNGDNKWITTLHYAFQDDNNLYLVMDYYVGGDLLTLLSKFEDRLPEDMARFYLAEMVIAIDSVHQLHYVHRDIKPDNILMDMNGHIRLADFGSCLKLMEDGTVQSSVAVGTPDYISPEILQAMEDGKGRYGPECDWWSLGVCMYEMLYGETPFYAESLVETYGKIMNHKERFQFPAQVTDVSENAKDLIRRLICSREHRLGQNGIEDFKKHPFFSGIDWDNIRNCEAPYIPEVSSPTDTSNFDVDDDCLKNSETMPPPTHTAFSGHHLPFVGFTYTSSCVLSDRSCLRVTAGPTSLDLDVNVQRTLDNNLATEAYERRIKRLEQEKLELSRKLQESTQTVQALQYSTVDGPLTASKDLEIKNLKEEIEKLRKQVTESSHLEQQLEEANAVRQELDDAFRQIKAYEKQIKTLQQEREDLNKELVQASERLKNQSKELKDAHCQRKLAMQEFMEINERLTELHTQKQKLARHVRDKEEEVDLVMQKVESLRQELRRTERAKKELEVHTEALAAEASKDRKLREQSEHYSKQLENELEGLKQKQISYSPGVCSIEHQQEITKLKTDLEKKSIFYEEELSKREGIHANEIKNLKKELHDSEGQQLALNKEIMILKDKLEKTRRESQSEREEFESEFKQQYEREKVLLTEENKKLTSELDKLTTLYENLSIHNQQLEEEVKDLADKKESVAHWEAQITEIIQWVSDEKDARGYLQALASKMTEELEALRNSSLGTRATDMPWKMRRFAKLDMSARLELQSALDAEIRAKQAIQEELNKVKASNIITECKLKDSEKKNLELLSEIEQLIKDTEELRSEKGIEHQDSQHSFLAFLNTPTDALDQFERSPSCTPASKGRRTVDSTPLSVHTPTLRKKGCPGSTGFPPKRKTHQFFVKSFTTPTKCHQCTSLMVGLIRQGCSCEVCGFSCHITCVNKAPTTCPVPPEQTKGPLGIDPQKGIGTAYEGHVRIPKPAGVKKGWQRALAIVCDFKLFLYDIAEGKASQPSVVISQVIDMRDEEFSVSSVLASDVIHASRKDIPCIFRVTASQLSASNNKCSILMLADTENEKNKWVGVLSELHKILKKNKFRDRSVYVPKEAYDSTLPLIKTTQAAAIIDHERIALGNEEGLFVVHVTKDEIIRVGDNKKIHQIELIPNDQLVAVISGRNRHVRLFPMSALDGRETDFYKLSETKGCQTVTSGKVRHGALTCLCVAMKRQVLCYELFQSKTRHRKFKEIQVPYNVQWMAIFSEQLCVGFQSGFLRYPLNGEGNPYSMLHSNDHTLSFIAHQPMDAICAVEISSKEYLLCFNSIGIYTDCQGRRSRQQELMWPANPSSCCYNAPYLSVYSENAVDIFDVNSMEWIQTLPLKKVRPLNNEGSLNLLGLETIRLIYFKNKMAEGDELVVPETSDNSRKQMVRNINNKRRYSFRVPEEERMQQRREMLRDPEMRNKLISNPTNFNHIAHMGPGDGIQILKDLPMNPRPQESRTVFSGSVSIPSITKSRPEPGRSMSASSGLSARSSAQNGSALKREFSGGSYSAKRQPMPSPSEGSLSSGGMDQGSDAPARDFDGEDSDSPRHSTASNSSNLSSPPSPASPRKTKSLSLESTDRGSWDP

Sample 1
Target: TAR DNA-binding protein 43, full length, His tag (TARDBP, Homo sapiens, UniProt Q13148, residues 1-414)
Technique: RNA Bind-n-Seq
Form: RNA
Sample: in vitro
Concentration: 20 nM
Setting: 6-mer, flanks averaged, single round
With: 150 mM LiCl
Relative to: input library
Reading: higher = stronger binding
For `CAUAGC`, “6-mer enrichment (R)” read 0.85.
For `CUAGCG`, “6-mer enrichment (R)” read 0.911.
Under “6-mer enrichment (R)”, `GCUAAU` is recorded as 0.913.
`CACCAC` — result for “6-mer enrichment (R)”: 0.998.
For `GUUGCG`, “6-mer enrichment (R)” read 1.23.
`UACAGC` — result for “6-mer enrichment (R)”: 0.839.
`AUGUCG` — result for “6-mer enrichment (R)”: 1.
For `GCGAUG`, “6-mer enrichment (R)” read 1.02.

Sample 2
Target: Sal-like protein 4, full length isoform A (SALL4, Homo sapiens, UniProt Q9UJQ4, residues 1-1053)
Sequence of UniProt Q9UJQ4 (whole entry, looked up): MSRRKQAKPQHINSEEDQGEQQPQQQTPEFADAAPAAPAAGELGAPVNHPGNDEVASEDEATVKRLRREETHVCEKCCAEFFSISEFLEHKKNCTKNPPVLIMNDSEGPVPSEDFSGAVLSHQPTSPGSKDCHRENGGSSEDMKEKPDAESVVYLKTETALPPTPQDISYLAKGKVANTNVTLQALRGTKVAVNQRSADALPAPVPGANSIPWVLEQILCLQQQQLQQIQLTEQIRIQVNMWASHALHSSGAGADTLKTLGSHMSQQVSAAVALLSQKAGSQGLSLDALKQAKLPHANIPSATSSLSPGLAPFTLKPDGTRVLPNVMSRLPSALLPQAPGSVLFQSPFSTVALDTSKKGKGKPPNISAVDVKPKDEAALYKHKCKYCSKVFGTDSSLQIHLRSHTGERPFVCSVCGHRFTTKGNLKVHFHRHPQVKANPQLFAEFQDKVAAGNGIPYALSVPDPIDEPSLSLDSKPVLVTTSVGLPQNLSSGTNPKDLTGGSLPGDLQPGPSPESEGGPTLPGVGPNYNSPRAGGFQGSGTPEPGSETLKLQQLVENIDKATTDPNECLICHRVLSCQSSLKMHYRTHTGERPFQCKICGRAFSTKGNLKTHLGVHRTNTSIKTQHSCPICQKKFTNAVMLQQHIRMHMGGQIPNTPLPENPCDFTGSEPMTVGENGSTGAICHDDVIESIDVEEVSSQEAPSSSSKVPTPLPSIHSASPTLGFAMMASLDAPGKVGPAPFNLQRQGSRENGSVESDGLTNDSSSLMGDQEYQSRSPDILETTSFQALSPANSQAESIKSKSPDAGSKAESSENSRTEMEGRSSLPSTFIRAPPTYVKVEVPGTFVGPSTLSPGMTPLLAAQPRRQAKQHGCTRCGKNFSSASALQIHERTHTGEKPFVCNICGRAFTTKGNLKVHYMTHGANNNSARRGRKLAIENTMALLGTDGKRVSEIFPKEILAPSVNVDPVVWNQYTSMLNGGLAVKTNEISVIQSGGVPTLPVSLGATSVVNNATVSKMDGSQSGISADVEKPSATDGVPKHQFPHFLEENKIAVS
Technique: universal PBM
Form: double-stranded DNA, one strand shown
Sample: in vitro
Concentration: 600 nM
Setting: 8-mer, flanks averaged, mean of replicates
Reading: higher = stronger binding
`TCCCGCGA` has an E-score of -0.183.
`ATTGGTTA` gave an E-score of 0.255.
`ACCATGGC` gave an E-score of -0.0258.
`CGTCGGCC` has an E-score of -0.334.
With `AGTAATTC` the E-score was 0.214.
The E-score of `AAGCACAT` is reported as -0.0409.
With `GGTCGAGA` the E-score was -0.19.
`AGACCAGA` has an E-score of 0.0624.

Sample 3
Target: PABPC1L2, full length, GST fusion (mouse, UniProt A0ABA7IW68)
Technique: RNAcompete
Form: RNA
Sample: in vitro
Concentration: 20 nM
Setting: 7-mer, probes averaged, single round
Relative to: mean of 7-mers
Reading: higher = stronger binding
Target sequence (chain): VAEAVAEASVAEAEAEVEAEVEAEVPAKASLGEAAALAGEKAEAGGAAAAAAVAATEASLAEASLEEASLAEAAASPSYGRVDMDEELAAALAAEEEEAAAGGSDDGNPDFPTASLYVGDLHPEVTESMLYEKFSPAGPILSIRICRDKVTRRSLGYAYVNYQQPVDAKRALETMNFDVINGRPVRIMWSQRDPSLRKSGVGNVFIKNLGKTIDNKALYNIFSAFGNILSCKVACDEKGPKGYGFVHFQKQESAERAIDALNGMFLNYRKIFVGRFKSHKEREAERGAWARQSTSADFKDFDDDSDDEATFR
`GCUAAAU` gave a 7-mer Z-score of 0.341.
`CGCAGUA` has a 7-mer Z-score of -0.222.
`GGGACUG` gave a 7-mer Z-score of 0.345.
`AUCUUUC` gave a 7-mer Z-score of -0.315.
`AGACGAC` has a 7-mer Z-score of -0.05.
With `UGUGUCG` the 7-mer Z-score was -0.373.
`CGGAGAC` gave a 7-mer Z-score of 0.0569.
`ACCAUUU` gave a 7-mer Z-score of -0.132.

Further values, each from its own experiment
`CCOC(=O)c1c(C)[nH]c(/C=C2\C(=O)Nc3ccccc32)c1C` gave a remaining activity of 85.7% (Serine/threonine-protein kinase MRCK alpha (CDC42BPA, Homo sapiens, UniProt Q5VT25); enzyme activity, inhibitor; 0.5 µM; relative to: control).

For quick reference, copied from above (sample 2):
`TCCCGCGA` has an E-score of -0.183.
